Earlier results, collected from citations in different studies.
Compare with care: the assays were run in different laboratories. ± marks the error that the study gave.
CBP TAZ1 domain: CBP TAZ1 domain (Mus musculus, UniProt P45481)
UniProt P45481, sequence (whole entry, looked up): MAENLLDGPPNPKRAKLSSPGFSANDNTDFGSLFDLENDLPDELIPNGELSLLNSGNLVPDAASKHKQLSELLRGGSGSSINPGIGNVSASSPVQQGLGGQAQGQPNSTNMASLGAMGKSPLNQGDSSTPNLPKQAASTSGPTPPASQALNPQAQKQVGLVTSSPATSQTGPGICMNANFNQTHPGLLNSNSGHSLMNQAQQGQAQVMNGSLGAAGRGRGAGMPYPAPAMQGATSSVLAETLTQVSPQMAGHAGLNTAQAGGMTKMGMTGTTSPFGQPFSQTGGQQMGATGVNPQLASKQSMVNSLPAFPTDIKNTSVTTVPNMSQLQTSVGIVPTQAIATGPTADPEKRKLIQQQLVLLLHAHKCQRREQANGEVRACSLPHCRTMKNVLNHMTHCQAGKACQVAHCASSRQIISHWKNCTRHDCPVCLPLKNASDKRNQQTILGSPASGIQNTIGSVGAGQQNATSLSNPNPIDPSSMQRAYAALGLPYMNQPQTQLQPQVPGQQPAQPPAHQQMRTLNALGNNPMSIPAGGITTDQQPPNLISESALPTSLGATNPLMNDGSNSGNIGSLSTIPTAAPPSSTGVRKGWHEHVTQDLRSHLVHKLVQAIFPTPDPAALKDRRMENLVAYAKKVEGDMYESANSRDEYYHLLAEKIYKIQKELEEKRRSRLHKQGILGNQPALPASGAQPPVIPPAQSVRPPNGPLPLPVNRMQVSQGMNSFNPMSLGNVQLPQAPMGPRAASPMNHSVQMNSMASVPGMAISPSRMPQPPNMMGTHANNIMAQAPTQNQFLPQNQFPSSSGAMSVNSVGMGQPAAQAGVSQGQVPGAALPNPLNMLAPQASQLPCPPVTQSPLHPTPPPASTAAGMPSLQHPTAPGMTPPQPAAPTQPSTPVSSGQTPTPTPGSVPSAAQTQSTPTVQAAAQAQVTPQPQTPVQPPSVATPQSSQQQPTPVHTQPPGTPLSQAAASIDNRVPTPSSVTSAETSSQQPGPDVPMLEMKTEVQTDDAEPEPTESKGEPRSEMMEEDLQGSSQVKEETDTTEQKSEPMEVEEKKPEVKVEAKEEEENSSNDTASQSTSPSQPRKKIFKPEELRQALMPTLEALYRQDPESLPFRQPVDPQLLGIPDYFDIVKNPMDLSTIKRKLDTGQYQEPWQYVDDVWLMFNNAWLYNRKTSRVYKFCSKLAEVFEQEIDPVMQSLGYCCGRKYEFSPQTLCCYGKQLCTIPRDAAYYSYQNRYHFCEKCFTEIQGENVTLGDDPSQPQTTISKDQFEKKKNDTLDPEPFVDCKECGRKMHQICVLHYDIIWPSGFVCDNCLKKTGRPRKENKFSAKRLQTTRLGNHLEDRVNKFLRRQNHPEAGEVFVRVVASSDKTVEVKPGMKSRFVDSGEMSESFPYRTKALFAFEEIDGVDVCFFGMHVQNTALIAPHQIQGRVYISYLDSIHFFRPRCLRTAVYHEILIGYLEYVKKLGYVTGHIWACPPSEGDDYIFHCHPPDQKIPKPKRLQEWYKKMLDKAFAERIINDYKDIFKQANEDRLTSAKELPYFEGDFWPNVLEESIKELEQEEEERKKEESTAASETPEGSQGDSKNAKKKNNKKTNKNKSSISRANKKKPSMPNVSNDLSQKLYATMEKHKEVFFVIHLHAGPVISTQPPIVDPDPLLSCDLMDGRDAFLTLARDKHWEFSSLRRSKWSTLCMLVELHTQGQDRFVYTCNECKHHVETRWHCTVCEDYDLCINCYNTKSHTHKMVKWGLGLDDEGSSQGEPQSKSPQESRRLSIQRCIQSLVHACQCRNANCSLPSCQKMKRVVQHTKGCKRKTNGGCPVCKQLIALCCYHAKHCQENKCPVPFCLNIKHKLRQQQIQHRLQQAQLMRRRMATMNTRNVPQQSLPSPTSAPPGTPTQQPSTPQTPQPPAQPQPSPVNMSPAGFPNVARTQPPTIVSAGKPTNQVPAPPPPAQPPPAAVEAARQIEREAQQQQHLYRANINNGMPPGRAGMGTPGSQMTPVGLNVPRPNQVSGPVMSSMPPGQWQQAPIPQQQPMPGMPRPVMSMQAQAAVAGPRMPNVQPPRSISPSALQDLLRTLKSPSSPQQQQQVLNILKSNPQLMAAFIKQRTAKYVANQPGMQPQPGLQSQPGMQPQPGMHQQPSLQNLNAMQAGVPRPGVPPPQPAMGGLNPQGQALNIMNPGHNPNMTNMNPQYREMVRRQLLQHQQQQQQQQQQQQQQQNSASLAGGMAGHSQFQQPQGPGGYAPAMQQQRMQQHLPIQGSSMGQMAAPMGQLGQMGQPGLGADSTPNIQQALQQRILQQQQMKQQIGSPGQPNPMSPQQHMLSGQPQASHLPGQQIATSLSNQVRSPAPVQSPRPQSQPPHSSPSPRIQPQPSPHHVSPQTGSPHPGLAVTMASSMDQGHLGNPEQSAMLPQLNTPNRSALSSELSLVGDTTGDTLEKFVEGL
Tpm1 K15N: Tropomyosin alpha-1 chain (Tpm1, Rattus norvegicus, UniProt P04692, K15N)
UniProt P04692, sequence (whole entry, unmodified, looked up): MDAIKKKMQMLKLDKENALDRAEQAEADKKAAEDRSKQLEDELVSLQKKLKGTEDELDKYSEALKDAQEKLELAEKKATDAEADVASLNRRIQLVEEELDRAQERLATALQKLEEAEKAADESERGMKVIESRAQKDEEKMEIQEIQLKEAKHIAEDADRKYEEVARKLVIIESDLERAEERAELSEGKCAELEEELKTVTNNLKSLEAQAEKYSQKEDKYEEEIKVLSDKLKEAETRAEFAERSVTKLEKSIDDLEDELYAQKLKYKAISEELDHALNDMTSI
B1: CCL1; sequence looked up; chain KSMQVPFSRCCFSFAEQEIPLRAILCYRNTSSICSNEGLIFKLKRGKEACALDTVGWVQRHRKMLRHCPSKRK
UniProt Q99967, sequence (whole entry, looked up): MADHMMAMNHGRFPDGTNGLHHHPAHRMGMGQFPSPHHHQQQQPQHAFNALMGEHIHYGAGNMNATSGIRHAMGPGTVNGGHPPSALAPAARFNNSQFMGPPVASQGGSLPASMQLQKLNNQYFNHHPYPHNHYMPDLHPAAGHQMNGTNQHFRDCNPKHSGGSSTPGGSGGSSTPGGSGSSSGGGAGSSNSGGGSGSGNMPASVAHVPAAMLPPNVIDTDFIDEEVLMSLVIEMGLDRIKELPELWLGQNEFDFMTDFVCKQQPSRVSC
UniProt Q9BX63, sequence (whole entry, looked up): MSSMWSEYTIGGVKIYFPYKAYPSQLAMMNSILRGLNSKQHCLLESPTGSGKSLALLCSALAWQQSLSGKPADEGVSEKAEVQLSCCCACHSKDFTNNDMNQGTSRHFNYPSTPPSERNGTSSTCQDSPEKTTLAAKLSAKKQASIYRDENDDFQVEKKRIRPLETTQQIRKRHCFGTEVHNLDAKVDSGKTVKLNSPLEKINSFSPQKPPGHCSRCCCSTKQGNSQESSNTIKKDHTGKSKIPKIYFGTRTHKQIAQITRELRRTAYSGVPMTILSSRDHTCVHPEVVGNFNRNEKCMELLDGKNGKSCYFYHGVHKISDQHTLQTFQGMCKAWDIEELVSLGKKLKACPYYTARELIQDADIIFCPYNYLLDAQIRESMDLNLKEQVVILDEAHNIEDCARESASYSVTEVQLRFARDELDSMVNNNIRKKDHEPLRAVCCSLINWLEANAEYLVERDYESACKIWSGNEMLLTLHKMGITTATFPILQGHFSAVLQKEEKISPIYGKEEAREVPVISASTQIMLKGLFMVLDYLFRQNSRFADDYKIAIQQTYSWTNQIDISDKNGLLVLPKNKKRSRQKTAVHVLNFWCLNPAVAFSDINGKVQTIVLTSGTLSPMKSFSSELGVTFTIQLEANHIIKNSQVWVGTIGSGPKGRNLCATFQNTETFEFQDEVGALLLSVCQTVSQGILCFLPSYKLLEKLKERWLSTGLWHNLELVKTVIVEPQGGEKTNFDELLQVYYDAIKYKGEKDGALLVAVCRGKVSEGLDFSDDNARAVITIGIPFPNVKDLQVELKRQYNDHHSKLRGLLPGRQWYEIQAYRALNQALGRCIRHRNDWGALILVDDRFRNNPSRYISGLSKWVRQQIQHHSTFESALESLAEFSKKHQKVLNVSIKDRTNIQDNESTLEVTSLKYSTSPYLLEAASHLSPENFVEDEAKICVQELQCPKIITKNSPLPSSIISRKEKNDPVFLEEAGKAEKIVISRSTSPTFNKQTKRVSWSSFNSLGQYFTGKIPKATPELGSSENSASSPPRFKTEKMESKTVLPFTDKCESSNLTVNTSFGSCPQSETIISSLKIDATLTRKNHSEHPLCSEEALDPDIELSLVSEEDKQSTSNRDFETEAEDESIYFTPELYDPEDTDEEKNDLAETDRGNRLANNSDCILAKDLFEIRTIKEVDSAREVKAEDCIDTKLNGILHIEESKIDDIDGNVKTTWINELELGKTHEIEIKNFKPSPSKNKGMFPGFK
UniProt Q23985, sequence (whole entry, looked up): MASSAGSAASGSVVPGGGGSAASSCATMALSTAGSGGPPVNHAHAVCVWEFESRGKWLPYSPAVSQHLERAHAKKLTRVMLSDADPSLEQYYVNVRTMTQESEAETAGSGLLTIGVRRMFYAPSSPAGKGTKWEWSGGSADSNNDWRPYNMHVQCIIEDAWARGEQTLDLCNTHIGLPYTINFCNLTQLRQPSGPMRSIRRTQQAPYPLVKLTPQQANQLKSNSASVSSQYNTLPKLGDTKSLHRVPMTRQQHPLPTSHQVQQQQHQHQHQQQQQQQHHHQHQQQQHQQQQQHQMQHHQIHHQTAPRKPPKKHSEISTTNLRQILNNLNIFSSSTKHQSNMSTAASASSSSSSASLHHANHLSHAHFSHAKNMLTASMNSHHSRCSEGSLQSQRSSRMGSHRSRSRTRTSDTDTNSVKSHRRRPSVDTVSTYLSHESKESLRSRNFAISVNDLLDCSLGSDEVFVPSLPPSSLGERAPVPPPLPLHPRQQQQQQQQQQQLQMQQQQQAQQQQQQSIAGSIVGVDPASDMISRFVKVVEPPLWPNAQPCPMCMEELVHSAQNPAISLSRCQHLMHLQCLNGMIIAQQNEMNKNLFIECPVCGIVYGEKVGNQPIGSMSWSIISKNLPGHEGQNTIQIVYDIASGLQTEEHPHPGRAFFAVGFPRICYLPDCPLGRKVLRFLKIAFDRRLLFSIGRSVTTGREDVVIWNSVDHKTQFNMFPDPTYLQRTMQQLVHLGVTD

Molecule | tested on | assay | test system | conditions | measurement | value
BTN2A1 fragment (Homo sapiens) | BTN3A1 fragment, HMBPP-bound (Homo sapiens) | ITC | – | – | Kd | 890 nM
SIRPα IgV domain (Homo sapiens, UniProt P78324) | CD47 IgV domain (Homo sapiens, UniProt Q08722) | SPR | – | – | Kd | 1500 nM
HIF1A CTAD (Homo sapiens, UniProt Q16665) | CBP TAZ1 domain | fluorescence anisotropy competition | – | – | Kd | 900 nM
VLDLR fragment (Homo sapiens) | fibrinogen beta chain residues 15-64 (Homo sapiens, UniProt P02675) | SPR | – | – | Kd | 6100 nM
MSYRKELEKYRDLDEDKILGALTEEELRKLENELEELD | Tpm1 K15N | CD thermal unfolding | – | 30 °C | Kd | 3770 ± 10 nM
B1 (CCL1) | CCR8 Y113A mutant | IP accumulation, agonist | – | – | EC50 | 323 nM
SGF29 tandem Tudor domain (Homo sapiens, UniProt Q96ES7) | histone H3 peptide, K4me3 (UniProt P68431) | ITC | – | – | Kd | 13800 nM
CITED2 CTAD (Homo sapiens, UniProt Q99967) | CBP TAZ1 domain | fluorescence anisotropy competition | – | – | Kd | 0.2 nM
STFGYRRGLSKYESIDEDELLASLSAEELKELERELEDIE (Lmod2(2-41); sequence looked up) | Tpm1 K15N | CD thermal unfolding | peptide | 30 °C | Kd | 2310 ± 70 nM
KWIKIWFIWRRIKWRK | Staphylococcus aureus | – | peptide | – | MIC | 15.6 µg/mL
CITED2 activation domain (Homo sapiens, UniProt Q99967) | CREBBP TAZ1 domain (UniProt P45481) | not stated | – | – | Kd | 10 nM
Notch ankyrin domain (Drosophila melanogaster, UniProt P07207) | Deltex tandem WWE domains (Drosophila melanogaster, UniProt Q23985) | analytical ultracentrifugation | – | – | Kd | 5000 nM
synGAP CC-PBM region (Rattus norvegicus, UniProt Q9QUH6) | DLG4 PDZ3-SH3-GK (Rattus norvegicus, UniProt P31016) | ITC | – | – | Kd | 140 nM
RGTCYNRVGLIIRNFSKLKGKKV | Pseudomonas aeruginosa | – | peptide, ATCC 15692 | – | MIC | 7 µM
pegcetacoplan | TK6 | – | – | with and without S9 activation | micronucleus induction | negative
RNF8 C-terminal region (Homo sapiens, UniProt O76064) | UBE2N (Homo sapiens, UniProt P61088) | SPR | – | – | Kd | 2000 nM
PYCARD PYD domain (Homo sapiens, UniProt Q9ULZ3) | itself | NMR | – | – | Kd | 65000 nM
fibrin fragment (Homo sapiens) | VLDLR repeats 1-8 (Homo sapiens, UniProt P98155) | SPR | – | – | Kd | 67000 nM
BRCA1 BRCT (Homo sapiens, UniProt P38398) | BACH1 phosphopeptide, phosphoserine (Homo sapiens, UniProt Q9BX63) | ITC | – | – | Kd | 430 nM

Repeated from above:
Molecule | tested on | assay | test system | conditions | measurement | value
synGAP CC-PBM region (Rattus norvegicus, UniProt Q9QUH6) | DLG4 PDZ3-SH3-GK (Rattus norvegicus, UniProt P31016) | ITC | – | – | Kd | 140 nM
